Results from different studies.
Each numbered part is a random draw from the data of one study; scales do not carry over between parts.
Chain of UniProt P23458 (whole entry, looked up): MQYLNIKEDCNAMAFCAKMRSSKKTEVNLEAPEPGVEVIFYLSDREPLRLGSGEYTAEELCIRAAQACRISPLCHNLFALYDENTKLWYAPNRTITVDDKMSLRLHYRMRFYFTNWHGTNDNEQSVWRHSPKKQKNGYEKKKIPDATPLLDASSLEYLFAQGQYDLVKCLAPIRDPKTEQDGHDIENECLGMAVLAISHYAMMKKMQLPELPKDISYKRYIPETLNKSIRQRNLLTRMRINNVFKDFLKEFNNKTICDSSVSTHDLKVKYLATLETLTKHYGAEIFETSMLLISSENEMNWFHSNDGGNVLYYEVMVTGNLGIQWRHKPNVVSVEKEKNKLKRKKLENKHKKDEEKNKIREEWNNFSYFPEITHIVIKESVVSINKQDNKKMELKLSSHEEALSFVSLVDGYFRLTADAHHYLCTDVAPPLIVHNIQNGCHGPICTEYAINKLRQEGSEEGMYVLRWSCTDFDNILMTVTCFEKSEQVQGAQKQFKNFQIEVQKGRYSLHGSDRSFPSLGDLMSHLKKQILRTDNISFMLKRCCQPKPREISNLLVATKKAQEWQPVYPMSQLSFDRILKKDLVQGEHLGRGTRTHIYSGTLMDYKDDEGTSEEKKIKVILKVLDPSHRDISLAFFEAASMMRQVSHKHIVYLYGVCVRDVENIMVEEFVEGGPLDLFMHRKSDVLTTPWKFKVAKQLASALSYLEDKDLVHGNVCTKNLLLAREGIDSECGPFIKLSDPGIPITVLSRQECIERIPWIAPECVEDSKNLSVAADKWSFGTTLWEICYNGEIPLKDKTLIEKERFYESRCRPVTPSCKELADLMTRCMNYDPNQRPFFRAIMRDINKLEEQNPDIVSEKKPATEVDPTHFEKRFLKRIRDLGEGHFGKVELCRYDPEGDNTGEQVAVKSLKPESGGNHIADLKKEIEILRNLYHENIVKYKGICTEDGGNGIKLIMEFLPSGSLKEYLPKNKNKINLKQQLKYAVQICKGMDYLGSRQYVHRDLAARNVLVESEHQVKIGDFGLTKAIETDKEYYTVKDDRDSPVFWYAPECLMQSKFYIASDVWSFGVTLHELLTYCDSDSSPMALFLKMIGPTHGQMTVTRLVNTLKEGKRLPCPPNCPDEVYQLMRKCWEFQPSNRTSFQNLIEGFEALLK
Chain of UniProt Q16659 (whole entry, looked up): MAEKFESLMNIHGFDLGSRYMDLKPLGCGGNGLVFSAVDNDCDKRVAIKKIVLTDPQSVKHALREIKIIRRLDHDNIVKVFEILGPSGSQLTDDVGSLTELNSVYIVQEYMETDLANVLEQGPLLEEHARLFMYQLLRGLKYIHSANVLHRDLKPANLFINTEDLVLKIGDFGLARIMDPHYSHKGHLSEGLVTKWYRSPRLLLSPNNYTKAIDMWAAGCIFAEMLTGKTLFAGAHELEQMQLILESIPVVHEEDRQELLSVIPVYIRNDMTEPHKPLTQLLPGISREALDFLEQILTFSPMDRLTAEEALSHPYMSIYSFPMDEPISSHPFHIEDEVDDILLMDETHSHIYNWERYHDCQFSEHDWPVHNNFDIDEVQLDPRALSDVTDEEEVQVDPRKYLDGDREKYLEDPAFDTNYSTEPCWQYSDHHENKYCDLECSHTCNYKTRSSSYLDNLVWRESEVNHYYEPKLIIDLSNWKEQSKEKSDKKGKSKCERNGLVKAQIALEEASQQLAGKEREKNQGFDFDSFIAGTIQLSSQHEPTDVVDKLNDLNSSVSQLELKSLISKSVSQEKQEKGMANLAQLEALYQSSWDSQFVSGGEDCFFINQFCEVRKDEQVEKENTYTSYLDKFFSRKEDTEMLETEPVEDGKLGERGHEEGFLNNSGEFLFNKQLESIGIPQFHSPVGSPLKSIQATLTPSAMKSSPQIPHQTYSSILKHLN
Chain of UniProt P41743 (whole entry, looked up): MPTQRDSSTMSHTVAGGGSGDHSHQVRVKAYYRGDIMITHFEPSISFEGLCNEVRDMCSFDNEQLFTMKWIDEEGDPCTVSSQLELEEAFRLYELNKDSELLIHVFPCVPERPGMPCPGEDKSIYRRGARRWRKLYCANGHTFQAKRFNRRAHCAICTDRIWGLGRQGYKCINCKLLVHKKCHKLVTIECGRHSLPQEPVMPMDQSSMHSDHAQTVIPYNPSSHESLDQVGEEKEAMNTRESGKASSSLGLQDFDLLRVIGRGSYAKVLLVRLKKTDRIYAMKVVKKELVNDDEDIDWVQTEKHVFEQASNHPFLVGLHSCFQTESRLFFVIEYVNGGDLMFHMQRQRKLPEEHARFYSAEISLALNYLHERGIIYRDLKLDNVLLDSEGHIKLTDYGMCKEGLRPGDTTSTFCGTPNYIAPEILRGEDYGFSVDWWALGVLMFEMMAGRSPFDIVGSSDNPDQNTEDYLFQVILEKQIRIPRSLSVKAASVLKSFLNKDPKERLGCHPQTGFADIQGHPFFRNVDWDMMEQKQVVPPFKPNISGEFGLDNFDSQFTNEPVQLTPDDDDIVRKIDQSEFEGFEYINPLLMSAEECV
Chain of UniProt Q99683 (whole entry, looked up): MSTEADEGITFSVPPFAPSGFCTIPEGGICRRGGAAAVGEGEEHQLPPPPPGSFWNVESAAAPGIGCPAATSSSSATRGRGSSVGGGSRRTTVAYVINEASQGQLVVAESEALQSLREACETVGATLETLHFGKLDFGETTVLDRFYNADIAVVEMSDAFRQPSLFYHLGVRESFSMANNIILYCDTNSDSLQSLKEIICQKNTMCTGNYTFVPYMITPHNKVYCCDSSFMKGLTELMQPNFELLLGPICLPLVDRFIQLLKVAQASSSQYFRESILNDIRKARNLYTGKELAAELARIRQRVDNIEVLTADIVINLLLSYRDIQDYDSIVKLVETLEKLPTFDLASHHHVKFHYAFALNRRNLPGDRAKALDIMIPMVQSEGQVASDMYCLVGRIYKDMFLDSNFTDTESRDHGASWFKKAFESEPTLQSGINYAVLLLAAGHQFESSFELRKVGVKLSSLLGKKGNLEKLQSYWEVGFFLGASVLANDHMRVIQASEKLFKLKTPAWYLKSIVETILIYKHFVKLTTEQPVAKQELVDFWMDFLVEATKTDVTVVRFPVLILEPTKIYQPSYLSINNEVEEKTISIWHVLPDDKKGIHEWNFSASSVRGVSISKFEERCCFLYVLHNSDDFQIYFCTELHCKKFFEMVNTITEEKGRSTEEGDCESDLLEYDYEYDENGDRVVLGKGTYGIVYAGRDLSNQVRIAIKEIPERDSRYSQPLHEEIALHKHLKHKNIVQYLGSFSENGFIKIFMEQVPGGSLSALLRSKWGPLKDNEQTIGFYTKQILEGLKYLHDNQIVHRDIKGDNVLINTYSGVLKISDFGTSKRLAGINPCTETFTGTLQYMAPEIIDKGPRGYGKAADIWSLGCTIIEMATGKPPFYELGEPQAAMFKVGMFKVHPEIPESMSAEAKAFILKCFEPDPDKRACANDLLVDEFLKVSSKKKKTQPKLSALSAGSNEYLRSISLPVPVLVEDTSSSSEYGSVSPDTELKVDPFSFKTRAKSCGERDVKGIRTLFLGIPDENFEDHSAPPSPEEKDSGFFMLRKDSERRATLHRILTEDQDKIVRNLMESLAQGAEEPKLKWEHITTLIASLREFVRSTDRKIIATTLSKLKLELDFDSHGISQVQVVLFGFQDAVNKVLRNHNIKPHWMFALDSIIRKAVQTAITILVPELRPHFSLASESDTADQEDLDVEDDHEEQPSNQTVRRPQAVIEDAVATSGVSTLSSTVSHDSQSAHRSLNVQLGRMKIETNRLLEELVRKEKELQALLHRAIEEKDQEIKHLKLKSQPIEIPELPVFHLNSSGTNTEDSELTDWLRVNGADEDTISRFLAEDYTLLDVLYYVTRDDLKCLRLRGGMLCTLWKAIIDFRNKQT

Block 1 — effect on: cell-free assay; concentration: 1 µM
Structure (SMILES): C[C@H]1CC[C@H](n2c3cnccc3c3cnc(Nc4ccc5c(n4)CCN(C(=O)CO)C5)nc32)CC1
target | remaining signal
Mitogen-activated protein kinase 6 (MAPK6, Homo sapiens, UniProt Q16659) | 100%
Tyrosine-protein kinase ABL1 (ABL1, Homo sapiens, UniProt P00519, M351T) | 92%
Protein-tyrosine kinase 2-beta (PTK2B, Homo sapiens, UniProt Q14289) | 70%
Mitogen-activated protein kinase kinase kinase 5 (MAP3K5, Homo sapiens, UniProt Q99683) | 100%
Hepatocyte growth factor receptor (MET, Homo sapiens, UniProt P08581, M1250T) | 78%
Mast/stem cell growth factor receptor Kit (KIT, Homo sapiens, UniProt P10721, D816H) | 25%
Dual specificity tyrosine-phosphorylation-regulated kinase 1B (DYRK1B, Homo sapiens, UniProt Q9Y463) | 0.6%
Tyrosine-protein kinase JAK1, JH1 (JAK1, Homo sapiens, UniProt P23458) | 100%
Protein kinase C iota type (PRKCI, Homo sapiens, UniProt P41743) | 100%
Serine/threonine-protein kinase Nek5 (NEK5, Homo sapiens, UniProt Q6P3R8) | 70%

Block 2 — effect on: enzyme activity; mode: inhibitor; concentration: 10 µM
Target: Calcium/calmodulin-dependent protein kinase type II subunit alpha (CAMK2A, Homo sapiens, UniProt Q9UQM7)
Chain of UniProt Q9UQM7 (whole entry, looked up): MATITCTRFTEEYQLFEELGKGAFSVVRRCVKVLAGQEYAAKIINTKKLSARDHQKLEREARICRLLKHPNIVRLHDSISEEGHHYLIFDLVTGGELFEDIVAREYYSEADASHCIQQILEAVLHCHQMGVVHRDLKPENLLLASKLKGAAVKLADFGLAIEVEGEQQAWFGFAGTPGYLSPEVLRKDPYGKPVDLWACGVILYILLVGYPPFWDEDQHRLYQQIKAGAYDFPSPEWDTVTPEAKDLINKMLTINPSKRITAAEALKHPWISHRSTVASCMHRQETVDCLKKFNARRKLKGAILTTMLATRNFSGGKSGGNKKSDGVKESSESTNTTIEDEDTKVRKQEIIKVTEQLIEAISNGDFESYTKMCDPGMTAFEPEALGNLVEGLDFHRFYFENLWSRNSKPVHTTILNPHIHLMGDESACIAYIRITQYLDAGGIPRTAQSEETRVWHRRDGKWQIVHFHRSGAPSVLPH
SMILES | inhibition
O=C(CO)[C@@H](O)[C@@H](O)[C@H](O)[C@H](O)CO | -7%
CC(C)NCC(O)COc1cccc2[nH]ccc12 (centres unmarked) | -14%
CN(C)C | -13%
Cc1c(-c2ccccc2)oc2c(C(=O)OCCN3CCCCC3)cccc2c1=O | -3%
O=C1CCC[C@@H]2[C@H]3CCC[N+]4([O-])CCC[C@H](CN12)[C@@H]34 (some centres unmarked) | 20%
COc1ccc(CCO[C@@H]2CCCC[C@H]2N2CC[C@@H](O)C2)cc1OC | -10%
COc1cc2c(=O)c3c(O)c([C@@H]4O[C@H](CO)[C@@H](O)[C@H](O)[C@H]4O[C@@H]4OC[C@](O)(CO)[C@H]4O)c(O)cc3oc2cc1O | 7%
CC1=C[C@]23C(=O)[C@@H](C=C4COC(C)(C)O[C@H]4C2(O)[C@H]1O)[C@H]1[C@@H](C[C@H]3C)C1(C)C (some centres unmarked) | 12%
COc1ccc(C(O)CNC(=O)/C=C/c2ccccc2)cc1 (centres unmarked) | -27%

Block 3 — mode: inhibitor; concentration: 10 µM; relative to: control
Target: Diamine acetyltransferase 1 (Homo sapiens, UniProt P21673)
Residues (P21673 1-171): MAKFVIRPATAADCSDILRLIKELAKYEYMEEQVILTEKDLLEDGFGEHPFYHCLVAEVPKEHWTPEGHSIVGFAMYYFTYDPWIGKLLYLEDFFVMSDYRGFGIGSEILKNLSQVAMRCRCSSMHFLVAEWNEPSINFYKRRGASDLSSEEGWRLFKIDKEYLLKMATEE
Compound | remaining activity [%]
CC/C=C\C/C=C\C/C=C\CCCCCCCC(=O)O | 80.8
O=C(/C=C/c1ccc(O)c(O)c1)O[C@@H](C(=O)O)[C@@H](O)C(=O)O | 101
C[C@@H]1CC[C@]2(C(=O)O)CC[C@]3(C)C(=CC[C@@H]4[C@@]5(C)C[C@@H](O)[C@@H](O)C(C)(C)[C@@H]5CC[C@]43C)[C@@H]2[C@]1(C)O | 90.6
O=c1cc(-c2ccc(O)c(-c3c(O)cc(O)c4c(=O)cc(-c5ccc(O)cc5)oc34)c2)oc2cc(O)cc(O)c12 | 106
C=CC(C)(O)CCC=C(C)C (centres unmarked) | 88.1
CCCCCCCC/C=C\CCCCCCCC(=O)OCC | 89.7
c1cc2c(cc1O[C@H]1OC[C@H]3[C@@H]1CO[C@@H]3c1ccc3c(c1)OCO3)OCO2 | 99.9
CC(C)=CCCc1ccoc1 | 72.6
O=c1c(-c2ccc(O)cc2)coc2cc(O)cc(O)c12 | 101

Block 4 — effect on: enzyme activity; mode: inhibitor; concentration: 0.5 µM; relative to: control
Target: Inhibitor of nuclear factor kappa-B kinase subunit alpha (CHUK, Homo sapiens, UniProt O15111)
Residues (O15111 1-745): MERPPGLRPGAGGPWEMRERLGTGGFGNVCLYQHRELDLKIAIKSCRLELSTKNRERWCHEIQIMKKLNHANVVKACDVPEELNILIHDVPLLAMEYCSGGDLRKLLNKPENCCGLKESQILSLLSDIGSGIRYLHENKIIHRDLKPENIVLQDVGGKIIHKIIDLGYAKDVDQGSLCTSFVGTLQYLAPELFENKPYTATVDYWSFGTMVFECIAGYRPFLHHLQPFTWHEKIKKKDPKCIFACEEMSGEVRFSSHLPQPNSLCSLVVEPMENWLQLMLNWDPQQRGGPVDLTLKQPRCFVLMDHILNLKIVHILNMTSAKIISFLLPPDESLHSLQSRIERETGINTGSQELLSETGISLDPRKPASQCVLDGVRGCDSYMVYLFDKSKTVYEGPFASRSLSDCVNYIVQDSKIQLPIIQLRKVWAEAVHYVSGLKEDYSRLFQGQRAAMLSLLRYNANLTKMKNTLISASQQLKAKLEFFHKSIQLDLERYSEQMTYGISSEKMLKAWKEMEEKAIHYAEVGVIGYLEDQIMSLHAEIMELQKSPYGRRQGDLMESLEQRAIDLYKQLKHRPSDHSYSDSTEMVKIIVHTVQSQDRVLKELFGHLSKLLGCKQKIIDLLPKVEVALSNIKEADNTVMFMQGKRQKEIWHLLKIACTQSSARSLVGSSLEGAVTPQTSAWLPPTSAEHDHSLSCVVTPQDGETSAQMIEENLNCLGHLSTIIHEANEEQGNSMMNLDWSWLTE
Structure (SMILES) | remaining activity [%]
O=C(O)c1ccc2c3c1cccc3c(=O)n1c3ccccc3nc21 | 114
COc1ccc(CNC(=O)Nc2ncc([N+](=O)[O-])s2)cc1 | 97.1
CN(C)c1ccc(C=C2C(=O)Nc3ccccc32)cc1 | 93.4
Cn1c2ccccc2c2c3c(c4c5ccccc5n(CCC#N)c4c21)CNC3=O | 102
N#CC(C#N)=C(N)/C(C#N)=C/c1ccc(O)cc1 | 94
Nc1ncnc2n[nH]c(Nc3ccc(F)cc3)c12 | 99.5
COc1ccc(C(=O)Nc2sc3c(c2C(N)=O)CCCC3)cc1OC | 83.3
CC(C)[C@H](CO)Nc1nc(Nc2cc(N)cc(Cl)c2)c2ncn(C(C)C)c2n1 | 97.3
OCC(O)CCON=C1C(c2c(O)[nH]c3ccccc23)=Nc2ccccc21 (centres unmarked) | 96.6
CNC(=O)c1cc(Oc2ccc(NC(=O)Nc3ccc(Cl)c(C(F)(F)F)c3)cc2)ccn1 | 99.8
CCOC(=O)c1c(C)[nH]c(/C=C2\C(=O)Nc3ccccc32)c1C | 102
CO[C@H]1C[C@@H]2CC[C@@H](C)[C@@](O)(O2)C(=O)C(=O)N2CCCC[C@H]2C(=O)O[C@H]([C@H](C)C[C@@H]2CC[C@@H](O)[C@H](OC)C2)CC(=O)[C@H](C)/C=C(\C)[C@@H](O)[C@@H](OC)C(=O)[C@H](C)C[C@H](C)/C=C/C=C/C=C/1C | 110
NCCNc1ncc(C(N)=O)c(Nc2cccc(C(F)(F)F)c2)n1 | 101

A few entries again (block 4):
Structure (SMILES) | remaining activity [%]
Nc1ncnc2n[nH]c(Nc3ccc(F)cc3)c12 | 99.5
CC(C)[C@H](CO)Nc1nc(Nc2cc(N)cc(Cl)c2)c2ncn(C(C)C)c2n1 | 97.3
NCCNc1ncc(C(N)=O)c(Nc2cccc(C(F)(F)F)c2)n1 | 101
CCOC(=O)c1c(C)[nH]c(/C=C2\C(=O)Nc3ccccc32)c1C | 102
OCC(O)CCON=C1C(c2c(O)[nH]c3ccccc23)=Nc2ccccc21 (centres unmarked) | 96.6
